Experimental data collected from several papers.
Compare with care: the assays were run in different laboratories.
Organism: Pseudomonas aeruginosa

Structure (SMILES)	assay	test system	setting	how to read	MIC
CC(CCCOC(=O)CCC[N+](C)(C)C)C1CCC2C3CCC4CC(OC(=O)CCC[N+](C)(C)C)CCC4(C)C3CCC12C (stereo not drawn)	microbial growth, broth dilution	ATCC27853	16 h		62.5 µg/mL
c1ccc(CN2CCOCCOCCN(CCCCCCCCCCN3CCOCCOCCN(CCCCCCCCCCN4CCOCCOCCN(Cc5ccccc5)CCOCCOCC4)CCOCCOCC3)CCOCCOCC2)cc1		FQR			> 100 µM
CC[C@@H](C)[C@@H](NC(=O)[C@@H](C)NC(=O)[C@@H](CCCCN)NC(=O)[C@@H](CC(C)C)NC(=O)[C@@H](C)NC(=O)[C@H](NC(=O)[C@@H](CCCCN)NC(=O)[C@@H](CC(C)C)NC(=O)[C@H](NC(=O)[C@@H](CCCCN)NC(=O)[C@@H](CCCCN)NC(=O)[C@@H](CCCCN)NC(=O)[C@@H](C)NC(=O)[C@@H](CCCCN)NC(=O)[C@@H](CO)NC(=O)[C@@H](Cc1ccccc1)NC(=O)[C@H](NC(=O)[C@@H](CCCCN)NC(=O)[C@@H](CC(C)C)NC(=O)[C@@H](Cc1ccccc1)NC(=O)[C@@H](CO)NC(=O)[C@@H](CCCCN)NC(=O)[C@@H](Cc1c[nH]c2ccccc12)NC(=O)[C@@H](CCCCN)NC(C)=O)[C@H](C)O)C(C)C)[C@H](C)O)C(=O)N[C@H](CO)C(=O)N[C@H](CCCCN)C(N)=O	broth microdilution	PA14	24 h, 37 °C		1.3 µM
CCn1cc[n+](CC)[c]1[Au-]([Cl])([Cl])[Cl]	broth dilution	PA7 DSM 24068	20 h, 37 °C		74.9 µM
CCCCN(CCCC)CC(O)COc1c2ccoc2c(OC)c2oc(CC)cc(=O)c12 (stereo not drawn)	broth microdilution	ATCC 15442	19 h, 35 °C		> 256 µg/mL
CC[C@@H](C)[C@@H](NC(=O)[C@@H](C)NC(=O)[C@@H](CCCCN)NC(=O)[C@@H](CC(C)C)NC(=O)[C@@H](CC(C)C)NC(=O)[C@H](NC(=O)[C@@H](CCCCN)NC(=O)[C@@H](CC(C)C)NC(=O)[C@@H](CCCCN)NC(=O)[C@@H](CCCCN)NC(=O)[C@@H](CCCCN)NC(=O)[C@@H](CCCCN)NC(=O)[C@@H](C)NC(=O)[C@@H](CCCCN)NC(=O)[C@@H](CO)NC(=O)[C@@H](Cc1ccccc1)NC(=O)[C@H](NC(=O)[C@@H](CCCCN)NC(=O)[C@@H](CC(C)C)NC(=O)[C@@H](Cc1ccccc1)NC(=O)[C@@H](CO)NC(=O)[C@@H](CCCCN)NC(=O)[C@@H](Cc1c[nH]c2ccccc12)NC(=O)[C@@H](CCCCN)NC(C)=O)[C@H](C)O)[C@H](C)O)C(=O)N[C@H](CO)C(=O)N[C@H](CCCCN)C(N)=O	broth microdilution	M2	24 h, 37 °C		5 µM
CO[C@@H](C(N)=O)[C@H](NC(=O)c1ccc(NC(=O)c2ccc([N+](=O)[O-])cc2)cc1)C(=O)Nc1ccc(C(=O)Nc2ccc(C(=O)Nc3ccc(C(=O)O)cc3)c(O)c2OC(C)C)cc1		PA14 ΔmexAB			0.5 µg/mL
CC(C)C[C@H](NC(=O)[C@H](CC(N)=O)NC(=O)[C@H](CCCNC(=N)N)NC(=O)[C@@H](CC(C)C)NC(=O)[C@H](Cc1ccc2ccccc2c1)NC(=O)[C@H](CC(=O)O)NC(=O)[C@H](CCCCN)NC(=O)[C@@H](CC(C)C)NC(=O)[C@H](CCCNC(=N)N)NC(=O)[C@H](CCC(N)=O)NC(=O)[C@@H](NC(=O)[C@@H](CC(C)C)NC(=O)[C@H](CCCNC(=N)N)NC(=O)[C@H](CCCCN)NC(=O)[C@H](Cc1ccccc1)NC(=O)CN)C(C)C)C(=O)N[C@H](C(N)=O)C(C)C	broth microdilution	PAO1			12.5 µM
NCC1OC(OC2C(N)CC(N)C(OC3OC(CO)C(O)C(N)C3O)C2OCCCCCCCCn2cc(CNc3nc(NCc4cn(CCCCCCCCOC5C(OC6OC(CN)C(O)CC6N)C(N)CC(N)C5OC5OC(CO)C(O)C(N)C5O)nn4)nc(NCc4cn(CCCCCCCCOC5C(OC6OC(CN)C(O)CC6N)C(N)CC(N)C5OC5OC(CO)C(O)C(N)C5O)nn4)n3)nn2)C(N)CC1O (stereo not drawn)	microbial growth, broth dilution	PAO1			128 µg/mL
CCn1cc(C(=O)NCCNCCO)c(=O)c2cc(OCc3ccc(C(C)(C)C)cc3)c(Cl)cc21		ATCC 27853		≥80% growth inhibition	< 0.25 µg/mL
COc1ccc2ccc3c(c2c1)C=[N+]1C2CCCCC2[N+]2=Cc4ccc(OCCN5CCCCC5)cc4[O][Au-]21[O]3.F[P-](F)(F)(F)(F)F (stereo not drawn)	bacterial growth, broth microdilution	carbapenem-resistant	24 h		10 µM
CC[P+](CC)(CC)[Au-][S]c1ccc(SCC(=O)N[C@H]2[C@H](OC(C)=O)O[C@H](COC(C)=O)[C@@H](OC(C)=O)[C@@H]2OC(C)=O)cc1		NCTC 13437			> 303 µM
CC[C@@H](C)[C@@H](NC(=O)[C@@H](C)NC(=O)[C@@H](CCCCN)NC(=O)[C@@H](CC(C)C)NC(=O)[C@@H](CC(C)C)NC(=O)[C@H](NC(=O)[C@@H](CCCCN)NC(=O)[C@@H](CC(C)C)NC(=O)[C@@H](C)NC(=O)[C@@H](CCCCN)NC(=O)[C@@H](CCCCN)NC(=O)[C@@H](CCCCN)NC(=O)[C@@H](C)NC(=O)[C@@H](CCCCN)NC(=O)[C@@H](CO)NC(=O)[C@@H](Cc1ccccc1)NC(=O)[C@H](NC(=O)[C@@H](CCCCN)NC(=O)[C@@H](CC(C)C)NC(=O)[C@@H](Cc1ccccc1)NC(=O)[C@@H](CO)NC(=O)[C@@H](CCCCN)NC(=O)[C@@H](Cc1c[nH]c2ccccc12)NC(=O)[C@@H](CCCCN)NC(C)=O)[C@H](C)O)[C@H](C)O)C(=O)N[C@H](CO)C(=O)N[C@H](CCCCN)C(N)=O	broth microdilution	PAK	24 h, 37 °C		1.3 µM
COc1ccc2ccc3c(c2c1)C=[N+]1C2CCCCC2[N+]2=Cc4ccc(F)cc4[O][Au-]21[O]3.F[P-](F)(F)(F)(F)F (stereo not drawn)	bacterial growth, broth microdilution	carbapenem-resistant	24 h		10 µM
CC(C)=CCc1cc([C@@H]2CC(=O)c3c(O)cc(O)c(CC=C(C)C)c3O2)cc(CC=C(C)C)c1O		ATCC 10145			128 µg/mL
CNC(C)C1CCC(N)C(OC2C(N)CC(N)C(OC3OCC(C)(O)C(NC)C3O)C2O)O1 (stereo not drawn)	broth microdilution	PL1 clinical isolate	18 h, 37 °C		2 µM
COc1ccc2ccc3c(c2c1)C=[N+]1C2CCCCC2[N+]2=Cc4ccc(C)cc4[O][Au-]21[O]3.F[P-](F)(F)(F)(F)F (stereo not drawn)	bacterial growth, broth microdilution	carbapenem-resistant clinical isolate	24 h		10 µM
CC(C)C(O)C(NC(=O)[C@H](Cc1ccc(O)cc1)NC(=O)C(Cc1ccc(O)cc1)[N+](C)(C)C)C(=O)N[C@@H](C)C(=O)O (stereo partly drawn)	CLSI broth microdilution	PAO1			> 100 µM

A few entries again:
Structure (SMILES)	assay	test system	setting	how to read	MIC
COc1ccc2ccc3c(c2c1)C=[N+]1C2CCCCC2[N+]2=Cc4ccc(F)cc4[O][Au-]21[O]3.F[P-](F)(F)(F)(F)F (stereo not drawn)	bacterial growth, broth microdilution	carbapenem-resistant	24 h		10 µM
